Experimental data from different studies.
Protocols differ between the studies behind these lines. ± gives the spread as reported.
Sequence of UniProt P08684 (whole entry, looked up): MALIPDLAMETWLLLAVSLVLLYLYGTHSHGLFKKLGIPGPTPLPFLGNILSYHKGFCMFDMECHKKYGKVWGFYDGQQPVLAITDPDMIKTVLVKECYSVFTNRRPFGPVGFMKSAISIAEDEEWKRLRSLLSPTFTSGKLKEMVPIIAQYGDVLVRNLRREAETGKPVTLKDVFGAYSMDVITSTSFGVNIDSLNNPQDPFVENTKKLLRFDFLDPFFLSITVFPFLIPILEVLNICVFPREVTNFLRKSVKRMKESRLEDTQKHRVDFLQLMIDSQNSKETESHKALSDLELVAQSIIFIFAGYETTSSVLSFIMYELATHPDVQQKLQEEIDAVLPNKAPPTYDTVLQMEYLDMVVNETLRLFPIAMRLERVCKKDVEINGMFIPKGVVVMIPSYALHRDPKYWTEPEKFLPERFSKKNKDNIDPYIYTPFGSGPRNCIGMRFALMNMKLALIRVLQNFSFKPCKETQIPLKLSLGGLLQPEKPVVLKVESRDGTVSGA
Sequence of UniProt Q8E0N2 (whole entry, looked up): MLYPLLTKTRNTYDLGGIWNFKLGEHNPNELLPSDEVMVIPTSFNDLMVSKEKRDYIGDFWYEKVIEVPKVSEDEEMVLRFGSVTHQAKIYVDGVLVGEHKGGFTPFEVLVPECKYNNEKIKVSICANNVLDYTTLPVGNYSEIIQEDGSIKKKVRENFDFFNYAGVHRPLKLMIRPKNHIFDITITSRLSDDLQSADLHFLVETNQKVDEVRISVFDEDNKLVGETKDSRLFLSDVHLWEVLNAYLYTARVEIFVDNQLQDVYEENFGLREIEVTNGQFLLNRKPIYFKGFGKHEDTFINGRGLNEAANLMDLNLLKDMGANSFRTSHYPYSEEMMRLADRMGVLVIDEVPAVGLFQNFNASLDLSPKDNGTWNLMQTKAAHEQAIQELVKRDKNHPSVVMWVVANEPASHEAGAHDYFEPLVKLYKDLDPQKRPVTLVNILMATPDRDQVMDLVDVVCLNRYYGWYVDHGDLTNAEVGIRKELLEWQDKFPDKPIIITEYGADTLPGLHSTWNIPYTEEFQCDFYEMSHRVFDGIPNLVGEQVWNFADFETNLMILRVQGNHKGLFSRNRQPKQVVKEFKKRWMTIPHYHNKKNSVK
Sequence of UniProt P41020 (whole entry, looked up): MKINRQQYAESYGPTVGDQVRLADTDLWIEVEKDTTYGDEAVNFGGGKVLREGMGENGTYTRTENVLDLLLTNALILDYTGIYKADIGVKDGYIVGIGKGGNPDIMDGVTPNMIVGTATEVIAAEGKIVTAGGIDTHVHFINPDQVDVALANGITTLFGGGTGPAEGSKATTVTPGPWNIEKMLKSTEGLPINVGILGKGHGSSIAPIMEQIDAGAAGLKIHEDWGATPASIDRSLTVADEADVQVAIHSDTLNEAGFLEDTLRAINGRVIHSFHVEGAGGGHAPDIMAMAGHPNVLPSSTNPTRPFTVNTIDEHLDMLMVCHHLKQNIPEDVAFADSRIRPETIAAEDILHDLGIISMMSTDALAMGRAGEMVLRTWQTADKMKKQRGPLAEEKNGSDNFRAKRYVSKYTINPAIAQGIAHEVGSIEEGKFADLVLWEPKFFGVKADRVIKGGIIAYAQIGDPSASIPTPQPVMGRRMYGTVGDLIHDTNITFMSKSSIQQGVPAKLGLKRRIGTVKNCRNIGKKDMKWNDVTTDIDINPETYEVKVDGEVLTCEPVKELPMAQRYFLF
Sequence of UniProt Q01959 (whole entry, looked up): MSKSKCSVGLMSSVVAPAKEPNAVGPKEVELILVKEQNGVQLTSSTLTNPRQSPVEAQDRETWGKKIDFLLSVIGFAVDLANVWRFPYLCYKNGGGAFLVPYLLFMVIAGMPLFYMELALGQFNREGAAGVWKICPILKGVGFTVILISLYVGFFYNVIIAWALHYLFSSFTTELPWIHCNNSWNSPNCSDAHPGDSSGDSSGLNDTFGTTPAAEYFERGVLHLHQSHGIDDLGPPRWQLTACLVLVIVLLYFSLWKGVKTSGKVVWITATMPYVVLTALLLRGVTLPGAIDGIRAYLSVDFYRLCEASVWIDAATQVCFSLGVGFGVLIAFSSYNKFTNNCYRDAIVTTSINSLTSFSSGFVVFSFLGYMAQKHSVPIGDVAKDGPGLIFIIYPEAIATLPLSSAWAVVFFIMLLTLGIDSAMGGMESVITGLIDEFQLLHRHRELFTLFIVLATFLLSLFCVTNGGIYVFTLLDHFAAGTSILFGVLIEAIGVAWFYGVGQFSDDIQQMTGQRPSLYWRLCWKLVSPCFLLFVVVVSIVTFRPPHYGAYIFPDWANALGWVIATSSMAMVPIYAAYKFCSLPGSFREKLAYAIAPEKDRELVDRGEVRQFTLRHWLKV
Sequence of UniProt P55210 (whole entry, looked up): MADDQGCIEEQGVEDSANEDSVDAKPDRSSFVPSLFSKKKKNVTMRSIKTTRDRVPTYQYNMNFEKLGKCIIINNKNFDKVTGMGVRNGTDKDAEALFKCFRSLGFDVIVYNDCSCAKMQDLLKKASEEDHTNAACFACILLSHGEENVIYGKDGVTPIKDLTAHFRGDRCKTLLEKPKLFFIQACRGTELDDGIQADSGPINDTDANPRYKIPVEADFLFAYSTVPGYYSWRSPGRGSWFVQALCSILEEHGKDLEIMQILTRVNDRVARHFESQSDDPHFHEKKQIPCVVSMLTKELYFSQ
Sequence of UniProt P40763 (whole entry, looked up): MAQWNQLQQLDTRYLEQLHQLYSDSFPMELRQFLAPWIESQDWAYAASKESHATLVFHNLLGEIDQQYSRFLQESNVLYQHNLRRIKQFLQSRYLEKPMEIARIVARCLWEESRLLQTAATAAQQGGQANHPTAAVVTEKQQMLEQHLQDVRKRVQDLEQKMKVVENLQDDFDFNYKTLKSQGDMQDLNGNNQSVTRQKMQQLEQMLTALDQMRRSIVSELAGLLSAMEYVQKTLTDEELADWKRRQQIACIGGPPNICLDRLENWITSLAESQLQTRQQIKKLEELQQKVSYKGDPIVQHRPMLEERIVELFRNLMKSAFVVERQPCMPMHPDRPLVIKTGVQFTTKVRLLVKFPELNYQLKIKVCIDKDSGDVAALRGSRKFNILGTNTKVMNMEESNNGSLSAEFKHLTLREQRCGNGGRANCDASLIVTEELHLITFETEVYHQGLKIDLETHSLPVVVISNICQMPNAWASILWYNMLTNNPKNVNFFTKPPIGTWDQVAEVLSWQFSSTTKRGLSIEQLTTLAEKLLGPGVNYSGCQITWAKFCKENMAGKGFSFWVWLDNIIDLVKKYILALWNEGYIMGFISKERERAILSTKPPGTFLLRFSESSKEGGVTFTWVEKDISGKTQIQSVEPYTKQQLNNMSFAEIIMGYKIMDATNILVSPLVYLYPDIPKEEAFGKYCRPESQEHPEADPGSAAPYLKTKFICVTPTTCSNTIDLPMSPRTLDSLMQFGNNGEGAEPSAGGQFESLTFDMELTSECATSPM
Sequence of UniProt P04228 (whole entry, looked up): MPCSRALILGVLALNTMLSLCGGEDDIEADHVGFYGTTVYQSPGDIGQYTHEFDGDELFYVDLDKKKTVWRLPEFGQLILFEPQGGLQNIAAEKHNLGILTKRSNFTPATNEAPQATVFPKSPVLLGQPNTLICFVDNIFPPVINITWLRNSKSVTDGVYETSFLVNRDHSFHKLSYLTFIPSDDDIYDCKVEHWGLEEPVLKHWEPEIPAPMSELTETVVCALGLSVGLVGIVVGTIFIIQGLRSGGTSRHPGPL
Sequence of UniProt P15056 (whole entry, unmodified, looked up): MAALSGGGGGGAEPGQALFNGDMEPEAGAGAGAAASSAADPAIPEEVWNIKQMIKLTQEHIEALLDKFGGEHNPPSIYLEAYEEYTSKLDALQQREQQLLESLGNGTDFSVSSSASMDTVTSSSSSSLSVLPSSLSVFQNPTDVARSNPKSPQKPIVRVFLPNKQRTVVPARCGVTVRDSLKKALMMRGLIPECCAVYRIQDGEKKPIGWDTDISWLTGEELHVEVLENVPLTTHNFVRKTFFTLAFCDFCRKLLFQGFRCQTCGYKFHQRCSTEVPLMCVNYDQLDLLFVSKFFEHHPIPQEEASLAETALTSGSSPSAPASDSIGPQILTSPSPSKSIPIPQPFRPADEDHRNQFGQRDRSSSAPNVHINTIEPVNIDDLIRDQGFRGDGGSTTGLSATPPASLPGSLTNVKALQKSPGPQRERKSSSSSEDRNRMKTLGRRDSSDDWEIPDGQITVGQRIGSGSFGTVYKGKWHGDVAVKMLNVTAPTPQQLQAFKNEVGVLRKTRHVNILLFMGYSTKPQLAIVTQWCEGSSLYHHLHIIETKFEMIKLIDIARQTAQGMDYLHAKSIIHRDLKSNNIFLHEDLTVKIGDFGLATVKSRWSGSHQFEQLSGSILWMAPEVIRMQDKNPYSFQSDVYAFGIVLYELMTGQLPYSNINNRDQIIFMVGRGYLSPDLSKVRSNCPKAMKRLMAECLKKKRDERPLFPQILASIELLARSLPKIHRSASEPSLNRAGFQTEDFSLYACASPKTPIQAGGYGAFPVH
Sequence of UniProt Q8WTS6 (whole entry, looked up): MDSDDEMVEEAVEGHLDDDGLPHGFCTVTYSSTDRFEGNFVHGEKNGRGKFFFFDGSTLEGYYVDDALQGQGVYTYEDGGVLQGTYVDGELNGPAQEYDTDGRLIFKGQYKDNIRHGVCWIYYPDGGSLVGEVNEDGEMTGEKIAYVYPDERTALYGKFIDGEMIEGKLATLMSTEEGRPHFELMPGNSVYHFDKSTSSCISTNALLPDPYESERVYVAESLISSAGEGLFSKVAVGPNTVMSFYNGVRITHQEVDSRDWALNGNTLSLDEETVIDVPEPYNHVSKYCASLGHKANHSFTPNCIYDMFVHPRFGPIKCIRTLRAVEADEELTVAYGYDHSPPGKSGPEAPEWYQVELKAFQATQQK

CC(C)C[C@H](c1ccc(Cl)cc1)[C@H]1CCCCN1
IC50 (SLC6A3 (Homo sapiens, UniProt Q01959); inhibitor): 9.8 ± 2.3 nM

CC(C)C[C@H](NC(=O)OCc1ccccc1)C(=O)N[C@@H](C[C@@H]1CCNC1=O)C(O)S(=O)(=O)O (some centres unmarked)
IC50 (Genome polyprotein, 3C protease (Human enterovirus 71, UniProt B9VUU3); protease activity, inhibitor, FRET; Enterovirus A71; no DTT): 60 ± 20 nM

CC(=O)N[C@@H](CC(C)C)C(=O)N[C@@H](CCC(=O)O)C(=O)N[C@@H](CO)C(=O)N[C@@H](CC(=O)O)C(=O)CCl
IC50 (Caspase-7 (CASP7, Homo sapiens, UniProt P55210); enzyme activity, inhibitor, fluorescence): 72000 nM

C1CCc2c(c(N3CCOCC3)nc3sc4c(N5CCNCC5)nnnc4c23)C1
IC50 (Beta-glucuronidase (Streptococcus agalactiae serotype V, UniProt Q8E0N2); Streptococcus agalactiae): 600 ± 200 nM

CP(=O)(O)CNCc1ccccc1
IC50 (Urease subunit alpha (Sporosarcina pasteurii, UniProt P41020); enzyme activity, inhibitor, indophenol colorimetric; 20 min, pH 7.0, 37 °C, with: 50 mM urea): 256000 ± 12800 nM

O=C(NCCN1CCC2(CC1)C(=O)NCN2Cc1ccccc1F)c1ccc2ccccc2c1
IC50 (Phospholipase D2 (Homo sapiens, UniProt O14939); enzyme activity, inhibitor): 205 nM

C/C(=C\C(=O)N[C@@H](CC(C)C)C(=O)N1C[C@@H](O)C[C@H]1C(=O)N[C@H](C)CCC(N)=O)c1ccc(OP(=O)(O)O)cc1
IC50 (STAT3 (Homo sapiens, UniProt P40763); phosphopeptide binding, inhibitor, fluorescence polarization): 220 ± 27 nM

CSCC[C@H](NC(=O)[C@H](C)NC(=O)[C@H](C)NC(=O)[C@H](C)N)C(=O)N[C@@H](CCCCN)C(=O)N[C@@H](CCCNC(=N)N)C(=O)N[C@@H](Cc1c[nH]cn1)C(=O)NCC(=O)N[C@@H](CC(C)C)C(N)=O
IC50 (MHC class II I-A g7 (Mus musculus, UniProt P04228+Q31135); peptide binding, competitor, competition ELISA; at least 24 h, pH 7.0, room temperature, with: biotinylated HEL 10-23 200 nM): > 50000 nM

CC[C@H](C)[C@H](NC(=O)[C@H](Cc1ccc(O)cc1)NC(=O)[C@H](CCCNC(=N)N)NC(=O)[C@H](CCCNC(=N)N)NC(=O)[C@H](CC(C)C)NC(=O)[C@H](CC(=O)O)NC(=O)[C@H](C)NC(=O)[C@H](C)NC(=O)[C@H](Cc1ccc(O)cc1)NC(=O)[C@H](CCC(=O)O)NC(=O)[C@H](CC(C)C)NC(=O)[C@@H]1CCCN1C(=O)[C@H](C)N)C(=O)N[C@@H](CC(N)=O)C(=O)N[C@@H](CCSC)C(=O)N[C@@H](CC(C)C)C(=O)N[C@H](C(=O)N[C@@H](CCCNC(=N)N)C(=O)N1CCC[C@H]1C(=O)N[C@@H](CCCNC(=N)N)C(=O)N[C@@H](Cc1ccc(O)cc1)C(N)=O)[C@@H](C)O
IC50 (NPY5R (Homo sapiens, UniProt Q15761); radioligand binding; BHK membranes, transfected): > 5000 nM

CSCC[C@@H]1NC(=O)[C@H]([C@@H](C)O)NC(=O)[C@H](CCCNC(=N)N)NC(=O)CNC(=O)CC[C@@H](C(=O)N[C@@H](C)C(=O)N[C@@H](CCCNC(=N)N)C(=O)N[C@@H](CCCCN)C(=O)N[C@@H](CO)C(=O)N[C@H](C(=O)NCC(=O)NCC(N)=O)[C@@H](C)O)NC(=O)[C@H](CCC(N)=O)NC1=O
IC50 (SETD7 (Homo sapiens, UniProt Q8WTS6); H3K4 peptide methylation, inhibitor, MALDI-TIMS-TOF MS; 30 min, 37 °C, with: H3K4 peptide 10 µM, SAM 30 µM): 56500 nM

Cc1ccc2nc(C)c(C(=O)NCc3cccs3)n2c1
IC50 (Cytochrome P450 3A4 (CYP3A4, Homo sapiens, UniProt P08684); enzyme activity, inhibitor; with: VG substrate): 9800 nM

O=C1NC(=O)C(=Cc2ccc(-c3ccc(Br)cc3)o2)S1
IC50 (BRAF (Homo sapiens, UniProt P15056, V600E); enzyme activity, inhibitor, ELISA): 2260 nM

N[C@H](C(=O)N1CCCC1)C1CCN(c2nccc3c(-c4ncc(Cl)cc4Cl)cccc23)CC1
IC50 (PADI4 (Homo sapiens, UniProt Q9UM07); enzyme activity, GDH-coupled; with: Ca2+ 1.5 mM): 694 nM

O=C(/C=C/c1ccc(F)cc1)c1ccc(N2CCNCC2)cc1
IC50 (Beta-secretase 1 (BACE1, Homo sapiens, UniProt P56817); enzyme activity, inhibitor, fluorescence; with preincubation): 14900 nM

For quick reference, copied from above:
O=C1NC(=O)C(=Cc2ccc(-c3ccc(Br)cc3)o2)S1
IC50 (BRAF (Homo sapiens, UniProt P15056, V600E); enzyme activity, inhibitor, ELISA): 2260 nM
